# Experimental data of several laboratories.
# Lines come from different studies, so protocols differ. Several values in a cell are separate wells, animals, samples, runs or records.
# KIT T670I/V559D: Mast/stem cell growth factor receptor Kit (KIT, Homo sapiens, UniProt P10721, T670I/V559D)
# KIT: Mast/stem cell growth factor receptor Kit (KIT, Homo sapiens, UniProt P10721)
# KIT A829P: Mast/stem cell growth factor receptor Kit (KIT, Homo sapiens, UniProt P10721, A829P)
# KIT V559D: Mast/stem cell growth factor receptor Kit (KIT, Homo sapiens, UniProt P10721, V559D)
# KIT autoinhibited: Mast/stem cell growth factor receptor Kit, autoinhibited (KIT, Homo sapiens, UniProt P10721)
# KIT D816V: Mast/stem cell growth factor receptor Kit (KIT, Homo sapiens, UniProt P10721, D816V)
SMILES,target,assay,setting,scale,measurement,value
C=CC(=O)N1CCc2ccc(-n3c(=O)ccc4cnc5ccc(-c6cnn(C)c6)cc5c43)cc21,KIT T670I/V559D,KINOMEscan,1 µM,relative to: DMSO control,remaining binding,84%
CN1CCN(c2ccc(Nc3ncc(Cl)c(Nc4ccccc4P(C)(C)=O)n3)cc2Br)CC1,KIT,"enzyme activity, inhibitor",0.1 µM,,inhibition,26%
NC(=O)C[C@H]1CCc2sc3ncnc(O[C@H]4CC[C@H](N5CCOCC5)CC4)c3c21,KIT,"enzyme activity, inhibitor",10 µM,,inhibition,6%
Cc1ccc(-c2c(/C=C(\C#N)C(=O)NC(C)C)n(CCCO)c3ncnc(N)c23)cc1,KIT T670I/V559D,"enzyme activity, inhibitor",1 µM,,remaining activity,95%
C=CC(=O)Nc1cccc(-c2cnc3[nH]cc(C(=O)NC(C)(C)C)c3n2)c1,KIT,"enzyme activity, inhibitor",0.1 µM,,inhibition,-6%
CC(C)=CC1OC(C)(C)C2C=C3C(=O)C(Cl)=CC(O)C3C3C(O)C4OC4C(=O)C132 (stereo not shown),KIT A829P,"cell-free assay, competition with immobilised ligand",10 µM,,remaining binding,87%
CNC(=O)C1CCN(c2cc(C)c(F)cc2NC(=O)c2ccc(-c3cc(O)ccc3C)c(C)c2)CC1,KIT V559D,"binding, competition with immobilised ligand",1 µM,,remaining binding,70%
CCN1CCN(Cc2ccc(C(=O)Nc3ccc(C)c(NCc4cnc5[nH]ccc5c4OC)c3)cc2C(F)(F)F)CC1,KIT autoinhibited,"binding, competition with immobilised ligand",1 µM,,remaining binding,78%
C=CC(=O)N1CCCC(n2c(=O)c3ncccc3n(Cc3ccc(Oc4ccccc4)cc3)c2=O)C1 (stereo not shown),KIT A829P,"cell-free assay, competition with immobilised ligand",1 µM,,remaining binding,74%
O=C=[N][Ru-4]123([n]4c5ccc(O)cc5c5c6c(c7cc(F)c[n+]1c7c54)C(=O)NC6=O)[S+]1CC[S+]2CC[S+]3CC1 (stereo not shown),KIT D816V,enzyme activity,"100 nM, human enzyme, together with: 10 µM ATP",relative to: untreated,remaining activity,103%
C=C1CCCCCCCCCC(CO)C1=O (stereo not shown),KIT D816V,cell-free assay,10 µM,,remaining signal,100%
O=C(Nc1ccc(Oc2ncnc3[nH]cc(-c4ccccc4)c23)c(F)c1)c1c2n(n(-c3cc(F)ccc3F)c1=O)CCCC2,KIT,"enzyme activity, inhibitor",0.5 µM,,inhibition,12%
CCn1cc(C(=O)O)c(=O)c2c(N)c(F)c(NC3CCCCC3)cc21,KIT,kinase activity,"0.1 µM, together with: ATP at Km",,inhibition,-11.4%
CN1CC[C@@H](COc2cnc(C#N)cc2-c2ccn3nc(NC(=O)C4CC4)cc3c2)C1,KIT,"enzyme activity, inhibitor",1 µM,,inhibition,1%
Nc1ncc2c(n1)-c1c([nH]c3ccc(C4=CCOCC4)cc13)CCC2,KIT A829P,"binding, competition with immobilised ligand",1 µM,,remaining binding,91%
COCC12C(=O)NC3C4(C(OC)CC1O)C1CC5(O)C(OC)C(O)C(OC(C)=O)(C1C5OC(=O)c1ccccc1)C3(O)C(OC)C24 (stereo not shown),KIT,"kinase activity, inhibitor, ProQinase kinase profiling",25 µM,relative to: control,remaining activity,111% and 118%
CN1CCN(Cc2ccc(-c3ccc(CO[C@H]4CCC[C@@H]4NC(=O)c4cc(-c5cnn(C)c5)cnc4N)cc3)cc2)CC1,KIT,"enzyme activity, inhibitor",0.1 µM,,inhibition,-13%
COc1cc(OC)c(F)c(/C=C/c2cnc3ccn(S(=O)(=O)c4cn(CCF)cn4)c3n2)c1F,KIT,,10 nM,,inhibition,0%
COc1c(Cl)cccc1Nc1c(-c2ccncc2C#C[C@@]2(C)CCCN2C(=O)/C=C/CN(C)C)[nH]c2c1C(=O)NCC2,KIT V559D,"binding, competition with immobilised ligand",3 µM,,remaining binding,96%
O=C(Cc1ccc(OCc2ccccc2)cc1)NC1(C(=O)O)CCN(C(=O)c2ccc(-c3cccc(Cl)c3)cc2)CC1,KIT,"enzyme activity, inhibitor",10 µM,,activity vs control,105%
COC(=O)[C@@]1(C)C=C(C(=O)Nc2cccc(C(=O)Nc3ccc(Nc4nccc(-c5cccnc5)n4)c(C)c3)c2)C(=O)CC1,KIT,"enzyme activity, inhibitor, radiometric",1 µM,,remaining activity,69%
Cc1cnc2nc1Nc1cccc(c1)COC/C=C/COCc1cc(ccc1OCCN1CCOCC1)N2,KIT autoinhibited,binding,0.1 µM,,remaining binding,74%
Cc1cccc(O[C@H]2CCC[C@@H](C(C)CNCc3ccncc3)C2)c1 (relative stereo),KIT,"enzyme activity, inhibitor",1 µM,,inhibition,3%
CNC1C[S+]2CC[S+]3CC[S+](C1)[Ru-4]321([N]=C=S)[n]2c3ccc(OC)cc3c3c4c(c5cc(F)c[n+]1c5c32)C(=O)NC4=O (stereo not shown),KIT D816V,KinomeScan,0.1 µM,relative to: untreated,remaining binding,14%
Cc1nc2c(F)cc(-c3nc(Nc4ccc(CNC(=O)CCCCCCC(=O)NO)cc4)ncc3F)cc2n1C(C)C,KIT D816V,"enzyme activity, inhibitor",1 µM,,inhibition,27%
